Assay results from different studies.
Protocols differ between the studies behind these lines. “And” joins repeats or separate records; there may be more than shown. ± gives the spread as reported.

SMILES = O=C(C[Se]C(=O)c1ccccc1)Nc1cccc(C(F)(F)F)c1; cell line = NCI60 breast subpanel; assay = NCI60 five-dose screen; endpoint = CC50; result = 21.6 µM
SMILES = CC[C@H](C)[C@H](NC(=O)[C@H](C)NC(=O)CNC(=O)[C@H](Cc1ccccc1)NC(=O)[C@H](CC(N)=O)NC(=O)[C@H](CC(N)=O)NC(=O)[C@H](CO)NC(=O)[C@H](CO)NC(=O)[C@H](Cc1c[nH]cn1)NC(=O)[C@@H](NC(=O)[C@H](CC(C)C)NC(=O)[C@H](Cc1ccccc1)NC(=O)[C@H](CC(N)=O)NC(=O)[C@H](C)NC(=O)[C@H](CC(C)C)NC(=O)[C@H](CCCNC(=N)N)NC(=O)[C@H](CCC(N)=O)NC(=O)[C@@H](NC(=O)[C@H](C)NC(=O)[C@@H]1CSSC[C@H](NC(=O)[C@@H](N)CCCCN)C(=O)N[C@@H](CC(N)=O)C(=O)N[C@@H]([C@@H](C)O)C(=O)N[C@@H](C)C(=O)N[C@@H]([C@@H](C)O)C(=O)N1)[C@@H](C)O)C(C)C)C(=O)N[C@@H](CC(C)C)C(=O)N[C@@H](CO)C(=O)N[C@@H](CO)C(=O)N[C@H](C(=O)N[C@@H](CC(N)=O)C(=O)N[C@H](C(=O)NCC(=O)N[C@@H](CO)C(=O)N[C@@H](CC(N)=O)C(=O)N[C@H](C(=O)N[C@@H](Cc1ccc(O)cc1)C(N)=O)[C@@H](C)O)C(C)C)[C@@H](C)O; cell line = RIN-m5F; assay = colocalization microscopy, item: γ-tubulin; setting = 10 µM, 24 h; endpoint = Pearson colocalization coefficient; result = < 0.3
SMILES = O=C(O)c1ccc(-c2nc(-c3ccccc3Cl)c3sccn23)cc1; cell line = HEL; assay = flow cytometry; setting = 0.01 mM; endpoint = CD235a-positive cells; result = 86.6%
SMILES = CC(C)(C)C(=O)OCOP(=O)(OCOC(=O)C(C)(C)C)C1CCCN(O)C1=O (centres unmarked); cell line = COLO 205; endpoint = TGI; result = 3.64 µM
SMILES = COc1ccccc1-c1ccncc1C(=O)Nc1nnc(OCc2ccc(Cl)cc2)s1; cell line = RPE-1 BRCA1 WT parental; setting = 1 µM, average of 2 runs; scale = baseline: untreated; endpoint = colony survival; result = 82.5%
SMILES = CC(C)Cc1ccc(C(C)C(=O)[Se]CC(=O)Nc2cccc(C(F)(F)F)c2)cc1 (centres unmarked); cell line = NCI60 colon subpanel; assay = NCI60 five-dose screen; endpoint = CC50; result = 25.4 µM
SMILES = CC(C)C[C@H](NC(=O)[C@H](CCC(=O)O)NC(=O)[C@@H](N)Cc1ccccc1)C(=O)N[C@@H](CCC(=O)O)C(=O)N[C@@H](CCCNC(=N)N)C(=O)N[C@@H](CCCNC(=N)N)C(=O)N[C@@H](Cc1ccccc1)C(=O)N[C@@H](CCCCN)C(=O)N[C@@H](CCC(N)=O)C(=O)N[C@@H](CCC(N)=O)C(=O)O; cell line = HCT-116; assay = Western blot, item: vimentin; setting = concentration not given, unit not given; scale = baseline: vehicle; endpoint = protein level; result = 1.32 and 1.11 and 1.01
SMILES = CC(C)[C@H](NC(=O)[C@H](CCCNC(=N)N)NC(=O)[C@@H]1CCCN1C(=O)[C@@H](NC(=O)[C@H](C)NC(=O)[C@H](Cc1ccc(O)cc1)NC(=O)[C@H](CCC(N)=O)NC(=O)[C@H](CCCCN)NC(=O)[C@H](CCCNC(=N)N)NC(=O)[C@@H]1CCCN1C(=O)[C@H](CCC(=O)O)NC(=O)[C@@H](NC(=O)[C@H](C)N)[C@@H](C)O)[C@@H](C)O)C(=O)N[C@@H](Cc1ccccc1)C(=O)N[C@@H](Cc1c[nH]c2ccccc12)C(=O)N[C@H](C(=O)N[C@@H](CC(=O)O)C(=O)N[C@@H](C)C(=O)N1CCC[C@H]1C(=O)NCC(=O)NCCOCCOCCOCCOCCOCCOCCOCCOCCOCCOCCOCCOCCC(=O)N[C@@H](CS)C(N)=O)[C@@H](C)O; cell line = LNCaP prostate carcinoma; assay = cell binding, phage binding, item: output/input phage; setting = 10 min, 37 °C; scale = baseline: control phage; endpoint = selectivity ratio; result = 1.9 ± 1.2

Excerpt of the above:
SMILES = CC(C)C[C@H](NC(=O)[C@H](CCC(=O)O)NC(=O)[C@@H](N)Cc1ccccc1)C(=O)N[C@@H](CCC(=O)O)C(=O)N[C@@H](CCCNC(=N)N)C(=O)N[C@@H](CCCNC(=N)N)C(=O)N[C@@H](Cc1ccccc1)C(=O)N[C@@H](CCCCN)C(=O)N[C@@H](CCC(N)=O)C(=O)N[C@@H](CCC(N)=O)C(=O)O; cell line = HCT-116; assay = Western blot, item: vimentin; setting = concentration not given, unit not given; scale = baseline: vehicle; endpoint = protein level; result = 1.32 and 1.11 and 1.01
